Assay results from different studies.
Each numbered part is a random draw from the data of one study; scales do not carry over between parts.
Chain of UniProt O15530 (whole entry, looked up): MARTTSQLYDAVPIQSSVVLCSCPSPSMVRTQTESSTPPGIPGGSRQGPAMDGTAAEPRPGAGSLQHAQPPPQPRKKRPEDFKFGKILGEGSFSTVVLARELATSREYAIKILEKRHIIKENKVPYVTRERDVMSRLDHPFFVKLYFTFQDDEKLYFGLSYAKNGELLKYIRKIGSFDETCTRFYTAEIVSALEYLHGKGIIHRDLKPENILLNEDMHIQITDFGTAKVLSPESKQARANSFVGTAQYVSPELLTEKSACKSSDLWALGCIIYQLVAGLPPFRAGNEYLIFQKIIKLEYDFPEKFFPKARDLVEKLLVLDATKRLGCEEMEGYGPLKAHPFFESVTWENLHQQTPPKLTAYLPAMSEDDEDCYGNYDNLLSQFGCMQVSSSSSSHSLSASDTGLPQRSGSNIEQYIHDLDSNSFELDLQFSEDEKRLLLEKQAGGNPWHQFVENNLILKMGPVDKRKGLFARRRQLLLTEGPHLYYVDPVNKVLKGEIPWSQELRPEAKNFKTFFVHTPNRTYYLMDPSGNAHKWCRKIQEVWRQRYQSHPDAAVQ
Chain of UniProt P54760 (whole entry, looked up): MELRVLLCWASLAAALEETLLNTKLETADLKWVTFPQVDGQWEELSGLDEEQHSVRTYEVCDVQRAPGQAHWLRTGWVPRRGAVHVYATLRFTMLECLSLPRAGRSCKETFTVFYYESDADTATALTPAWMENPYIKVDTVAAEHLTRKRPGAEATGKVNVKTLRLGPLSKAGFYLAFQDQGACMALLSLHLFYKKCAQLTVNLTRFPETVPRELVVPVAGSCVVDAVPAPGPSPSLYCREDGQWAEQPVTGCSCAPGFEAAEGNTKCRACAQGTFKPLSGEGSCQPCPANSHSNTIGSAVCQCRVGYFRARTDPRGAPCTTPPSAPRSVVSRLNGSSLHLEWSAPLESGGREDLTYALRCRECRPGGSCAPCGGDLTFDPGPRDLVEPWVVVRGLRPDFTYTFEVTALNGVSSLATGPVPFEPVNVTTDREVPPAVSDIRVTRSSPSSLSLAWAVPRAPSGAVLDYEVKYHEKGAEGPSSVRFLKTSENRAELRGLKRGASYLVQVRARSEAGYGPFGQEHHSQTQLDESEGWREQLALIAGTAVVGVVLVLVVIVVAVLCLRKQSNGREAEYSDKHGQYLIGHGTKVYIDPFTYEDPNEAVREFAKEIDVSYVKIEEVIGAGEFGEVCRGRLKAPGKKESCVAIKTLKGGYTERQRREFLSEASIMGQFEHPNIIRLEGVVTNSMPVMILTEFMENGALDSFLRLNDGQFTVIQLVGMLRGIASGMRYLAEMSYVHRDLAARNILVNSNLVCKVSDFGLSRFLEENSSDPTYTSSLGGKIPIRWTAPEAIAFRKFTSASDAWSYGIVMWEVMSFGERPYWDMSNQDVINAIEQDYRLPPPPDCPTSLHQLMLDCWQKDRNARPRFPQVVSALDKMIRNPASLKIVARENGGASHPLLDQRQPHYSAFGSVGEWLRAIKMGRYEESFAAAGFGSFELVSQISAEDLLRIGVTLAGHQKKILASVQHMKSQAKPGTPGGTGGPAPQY
Chain of UniProt P0C264 (whole entry, looked up): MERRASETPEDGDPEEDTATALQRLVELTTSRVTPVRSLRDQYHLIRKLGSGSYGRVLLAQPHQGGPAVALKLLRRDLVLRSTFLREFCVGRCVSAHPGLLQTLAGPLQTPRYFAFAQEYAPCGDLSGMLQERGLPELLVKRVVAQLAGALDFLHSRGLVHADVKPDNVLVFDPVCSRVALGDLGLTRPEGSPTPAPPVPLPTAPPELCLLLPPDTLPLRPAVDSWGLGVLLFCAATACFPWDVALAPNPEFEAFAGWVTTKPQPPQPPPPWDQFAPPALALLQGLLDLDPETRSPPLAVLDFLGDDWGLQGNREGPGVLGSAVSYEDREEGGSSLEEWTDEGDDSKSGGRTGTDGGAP
Chain of UniProt P54764 (whole entry, looked up): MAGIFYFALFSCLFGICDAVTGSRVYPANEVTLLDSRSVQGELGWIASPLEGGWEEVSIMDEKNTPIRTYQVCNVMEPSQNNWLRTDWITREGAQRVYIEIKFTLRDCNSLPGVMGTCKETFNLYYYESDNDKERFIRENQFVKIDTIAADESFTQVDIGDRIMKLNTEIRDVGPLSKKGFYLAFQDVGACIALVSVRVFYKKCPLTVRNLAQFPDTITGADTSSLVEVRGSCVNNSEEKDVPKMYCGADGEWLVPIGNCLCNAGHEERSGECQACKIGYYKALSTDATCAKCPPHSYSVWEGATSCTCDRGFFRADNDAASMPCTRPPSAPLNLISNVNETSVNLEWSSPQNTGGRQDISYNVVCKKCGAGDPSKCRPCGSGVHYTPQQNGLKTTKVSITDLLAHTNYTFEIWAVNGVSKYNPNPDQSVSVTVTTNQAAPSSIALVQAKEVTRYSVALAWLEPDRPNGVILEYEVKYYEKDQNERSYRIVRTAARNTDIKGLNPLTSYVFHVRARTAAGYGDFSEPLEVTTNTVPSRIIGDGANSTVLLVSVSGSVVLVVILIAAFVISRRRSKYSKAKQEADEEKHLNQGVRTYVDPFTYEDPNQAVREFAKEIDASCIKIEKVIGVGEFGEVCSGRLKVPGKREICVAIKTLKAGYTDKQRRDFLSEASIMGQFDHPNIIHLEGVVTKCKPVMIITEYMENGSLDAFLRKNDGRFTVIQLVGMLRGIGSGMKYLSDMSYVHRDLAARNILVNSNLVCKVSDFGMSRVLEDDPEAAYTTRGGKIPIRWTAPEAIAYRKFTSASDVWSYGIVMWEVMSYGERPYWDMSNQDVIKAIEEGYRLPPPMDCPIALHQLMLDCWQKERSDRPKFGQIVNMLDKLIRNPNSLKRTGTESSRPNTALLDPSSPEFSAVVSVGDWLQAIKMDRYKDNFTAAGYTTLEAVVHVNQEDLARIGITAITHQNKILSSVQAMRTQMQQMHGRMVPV

Sample 1 — SMILES: Cc1cc2ncc(-c3ccccc3)nc2cc1C; observed: enzyme activity; action: inhibitor; tested at: 0.5 µM; baseline: control; quantity: remaining activity
Ephrin type-B receptor 4 (EPHB4, Homo sapiens, UniProt P54760): 95.6%
Phosphorylase b kinase gamma catalytic chain, skeletal muscle/heart isoform (PHKG1, Homo sapiens, UniProt Q16816): 97.4%
Calcium/calmodulin-dependent protein kinase type II subunit beta (CAMK2B, Homo sapiens, UniProt Q13554): 101%
Homeodomain-interacting protein kinase 4 (HIPK4, Homo sapiens, UniProt Q8NE63): 120%
Serine/threonine-protein kinase 16 (STK16, Homo sapiens, UniProt O75716): 108%
3-phosphoinositide-dependent protein kinase 1 (PDPK1, Homo sapiens, UniProt O15530): 103%
Tyrosine-protein kinase receptor UFO (AXL, Homo sapiens, UniProt P30530): 100%
Ephrin type-B receptor 1 (EPHB1, Homo sapiens, UniProt P54762): 91.1%
Testis-specific serine/threonine-protein kinase 2 (TSSK2, Homo sapiens, UniProt Q96PF2): 87.5%
Serine/threonine-protein kinase WNK3 (WNK3, Homo sapiens, UniProt Q9BYP7): 103%
Cyclin-dependent kinase 6, with cyclin D3 (CDK6, Homo sapiens, UniProt Q00534): 86.7%
Tyrosine-protein kinase Blk (BLK, Homo sapiens, UniProt P51451): 96.5%
Ephrin type-A receptor 4 (EPHA4, Homo sapiens, UniProt P54764): 95.4%
Serine/threonine-protein kinase 17A (STK17A, Homo sapiens, UniProt Q9UEE5): 80%
Mitogen-activated protein kinase kinase kinase kinase 4 (MAP4K4, Homo sapiens, UniProt O95819): 85%
Ribosomal protein S6 kinase alpha-5 (RPS6KA5, Homo sapiens, UniProt O75582): 96.4%
Cyclin-dependent kinase 1, with cyclin B (CDK1, Homo sapiens, UniProt P06493): 108%
Tyrosine-protein kinase ABL1 (ABL1, Homo sapiens, UniProt P00519): 99.6%
cAMP-dependent protein kinase catalytic subunit gamma (PRKACG, Homo sapiens, UniProt P22612): 95.8%
Dual specificity tyrosine-phosphorylation-regulated kinase 3 (DYRK3, Homo sapiens, UniProt O43781): 89.2%
Cyclin-dependent kinase 4, with cyclin D3 (CDK4, Homo sapiens, UniProt P11802): 94.6%
Homeodomain-interacting protein kinase 2 (HIPK2, Homo sapiens, UniProt Q9H2X6): 97%
Ribosomal protein S6 kinase alpha-6 (RPS6KA6, Homo sapiens, UniProt Q9UK32): 98.2%
MAP kinase-activated protein kinase 3 (MAPKAPK3, Homo sapiens, UniProt Q16644): 100%

Sample 2 — organism: Sarcocystis neurona; observed: parasite growth; tested at: 10 µM; notes: secondary screen; quantity: inhibition
CCN(CC)CC#CCOC(=O)C(O)(c1ccccc1)C1CCCCC1 (stereo not drawn): -24.7%
N#Cc1ccc(C(c2ccc(C#N)cc2)n2cncn2)cc1: -40.1%
S=c1[nH]cnc2nc[nH]c12: -11.6%
Cc1ccc(-c2cc(C(F)(F)F)nn2-c2ccc(S(N)(=O)=O)cc2)cc1: -56.6%
COC(=O)Nc1nc2ccc(C(=O)c3ccccc3)cc2[nH]1: -138%
CCC(=O)O[C@]1(C(=O)SCF)[C@H](C)C[C@H]2[C@@H]3C[C@H](F)C4=CC(=O)C=C[C@]4(C)[C@@]3(F)[C@@H](O)C[C@@]21C: -21.9%
COCCCOc1ccnc(C[S+]([O-])c2nc3ccccc3[nH]2)c1C (stereo not drawn): -53.9%
CCOc1cc(N)c(Cl)cc1C(=O)NCC1CN(Cc2ccc(F)cc2)CCO1 (stereo not drawn): 66.2%
O=c1ncc(F)c[nH]1: -0.642%
COCCOC(=O)C1=C(C)NC(C)=C(C(=O)OC(C)C)C1c1cccc([N+](=O)[O-])c1 (stereo not drawn): -31%
NS(=O)(=O)c1cc(C2(O)NC(=O)c3ccccc32)ccc1Cl (stereo not drawn): -15.7%
Cc1onc(-c2ccccc2)c1C(=O)N[C@@H]1C(=O)N2[C@@H]1SC(C)(C)[C@@H]2C(=O)O: -21.5%
CCN(CC)C(=S)SSC(=S)N(CC)CC: 96.7%
C[C@]12CCC(=O)C=C1CC[C@@H]1[C@@H]2CC[C@@]2(C)[C@H]1CC[C@]2(O)C(=O)CO: 28.3%
CCCc1nc(C)c2c(=O)[nH]c(-c3cc(S(=O)(=O)N4CCN(CC)CC4)ccc3OCC)nn12.O=C(O)CC(O)(CC(=O)O)C(=O)O: -55%

Sample 3 — observed: cell-free assay; method: competition with immobilised ligand; tested at: 1 µM; quantity: remaining binding
Compound: C[C@H](c1cccc(C#N)c1)n1cc(Cl)cc(C(N)=O)c1=N
Tyrosine-protein kinase ABL1, non-phosphorylated (ABL1, Homo sapiens, UniProt P00519, Q252H): 100%
Cyclin-dependent kinase-like 1 (CDKL1, Homo sapiens, UniProt Q00532): 98%
Receptor-interacting serine/threonine-protein kinase 2 (RIPK2, Homo sapiens, UniProt O43353): 66%
Tyrosine-protein kinase Srms (SRMS, Homo sapiens, UniProt Q9H3Y6): 75%
Microtubule-associated serine/threonine-protein kinase 1 (MAST1, Homo sapiens, UniProt Q9Y2H9): 96%
Rhodopsin kinase GRK7 (GRK7, Homo sapiens, UniProt Q8WTQ7): 85%
Phosphatidylinositol 4,5-bisphosphate 3-kinase catalytic subunit alpha isoform (PIK3CA, Homo sapiens, UniProt P42336, E545A): 100%
Phosphatidylinositol 5-phosphate 4-kinase type-2 beta (PIP4K2B, Homo sapiens, UniProt P78356): 52%
Serine/threonine-protein kinase 33 (STK33, Homo sapiens, UniProt Q9BYT3): 92%
Uncharacterized serine/threonine-protein kinase SBK3 (SBK3, Homo sapiens, UniProt P0C264): 95%
Insulin receptor-related protein (INSRR, Homo sapiens, UniProt P14616): 100%
Epidermal growth factor receptor (EGFR, Homo sapiens, UniProt P00533): 100%
3-phosphoinositide-dependent protein kinase 1 (PDPK1, Homo sapiens, UniProt O15530): 100%
Tyrosine-protein kinase ABL1, phosphorylated (ABL1, Homo sapiens, UniProt P00519, F317L): 83%
Mitogen-activated protein kinase 10 (MAPK10, Homo sapiens, UniProt P53779): 100%

Sample 4 — SMILES: C=CCc1ccc(O)c(-c2cc(CC=C)ccc2O)c1; quantity: normalized current
ANO1 del476-501/R541A: Anoctamin-1 (ANO1, Homo sapiens, UniProt Q5XXA6, del476-501/R541A)
Chain of UniProt Q5XXA6 (whole entry, unmodified, looked up): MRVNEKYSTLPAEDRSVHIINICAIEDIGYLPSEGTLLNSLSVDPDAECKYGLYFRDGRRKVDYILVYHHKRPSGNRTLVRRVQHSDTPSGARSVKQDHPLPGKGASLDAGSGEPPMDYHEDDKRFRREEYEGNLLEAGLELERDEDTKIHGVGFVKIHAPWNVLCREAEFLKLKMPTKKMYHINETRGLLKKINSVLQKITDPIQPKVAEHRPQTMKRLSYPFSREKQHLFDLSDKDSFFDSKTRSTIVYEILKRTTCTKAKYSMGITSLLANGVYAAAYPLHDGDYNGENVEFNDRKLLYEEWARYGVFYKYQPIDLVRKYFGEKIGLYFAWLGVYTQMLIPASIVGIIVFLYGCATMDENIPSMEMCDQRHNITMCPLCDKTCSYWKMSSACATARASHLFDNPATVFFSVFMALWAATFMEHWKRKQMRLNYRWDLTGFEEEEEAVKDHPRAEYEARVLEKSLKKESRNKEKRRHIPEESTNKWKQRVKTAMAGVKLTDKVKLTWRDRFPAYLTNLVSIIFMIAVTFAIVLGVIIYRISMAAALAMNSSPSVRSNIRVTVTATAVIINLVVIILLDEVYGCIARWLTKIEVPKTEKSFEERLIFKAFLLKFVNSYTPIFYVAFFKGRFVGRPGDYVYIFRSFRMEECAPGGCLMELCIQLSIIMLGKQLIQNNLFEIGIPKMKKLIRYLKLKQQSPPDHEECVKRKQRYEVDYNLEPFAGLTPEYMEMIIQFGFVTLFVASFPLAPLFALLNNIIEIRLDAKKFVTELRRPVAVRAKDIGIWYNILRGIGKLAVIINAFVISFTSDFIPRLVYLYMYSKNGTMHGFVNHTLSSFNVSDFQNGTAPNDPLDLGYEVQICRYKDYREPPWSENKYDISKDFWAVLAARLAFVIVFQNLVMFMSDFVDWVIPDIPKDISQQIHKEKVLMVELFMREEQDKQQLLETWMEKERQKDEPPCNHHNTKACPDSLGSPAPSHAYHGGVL
ANO1 del476-501/E659A: Anoctamin-1 (ANO1, Homo sapiens, UniProt Q5XXA6, del476-501/E659A)
Anoctamin-1 (ANO1, Homo sapiens, UniProt Q5XXA6, del476-501/K629A); chloride current, inside-out patch clamp; 30 µM, membrane voltage 80 mV: 0.555
ANO1 del476-501/R541A; chloride current, whole-cell voltage clamp; 3 µM, membrane voltage 0 mV, together with: 4 µM Ca2+ (saturating): -0.0053
Anoctamin-1 (ANO1, Homo sapiens, UniProt Q5XXA6); chloride current, inside-out patch clamp; 30 µM, membrane voltage -40 mV: -0.441
ANO1 del476-501/E659A; chloride current, inside-out patch clamp; 30 µM, membrane voltage 120 mV: 1
Anoctamin-1 (ANO1, Homo sapiens, UniProt Q5XXA6, del476-501/E649A); ion current, inside-out patch clamp; 30 µM, E623A mutant at -40 mV: -0.25
ANO1 del476-501/R541A; chloride current, inside-out patch clamp; 30 µM, membrane voltage 120 mV: 1
Anoctamin-1 (ANO1, Homo sapiens, UniProt Q5XXA6, del476-501/E649A/R541A); chloride current, inside-out patch clamp; 30 µM, membrane voltage 120 mV: 1
ANO1 del476-501/R541A; chloride current, inside-out patch clamp; 30 µM, membrane voltage 0 mV: -0.0008
ANO1 del476-501/R541A; chloride current, inhibitor, inside-out patch clamp; 30 µM, R515A mutant at -100 mV: -0.555
ANO1 del476-501/E659A; chloride current, inhibitor, inside-out patch clamp; 30 µM, E633A mutant at -100 mV: -1.01
TMEM16A (human) K603A/E623A; chloride current, inside-out patch clamp; 30 µM, membrane voltage 80 mV: 0.512
ANO1 del476-501/R541A; chloride current, inside-out patch clamp; 30 µM, membrane voltage 60 mV: 0.382
